Published values pooled from the literature.
Lines come from different studies, so protocols differ.
Target: Mitogen-activated protein kinase 8 (MAPK8, Homo sapiens, UniProt P45983)
Chain of UniProt P45983 (whole entry, looked up): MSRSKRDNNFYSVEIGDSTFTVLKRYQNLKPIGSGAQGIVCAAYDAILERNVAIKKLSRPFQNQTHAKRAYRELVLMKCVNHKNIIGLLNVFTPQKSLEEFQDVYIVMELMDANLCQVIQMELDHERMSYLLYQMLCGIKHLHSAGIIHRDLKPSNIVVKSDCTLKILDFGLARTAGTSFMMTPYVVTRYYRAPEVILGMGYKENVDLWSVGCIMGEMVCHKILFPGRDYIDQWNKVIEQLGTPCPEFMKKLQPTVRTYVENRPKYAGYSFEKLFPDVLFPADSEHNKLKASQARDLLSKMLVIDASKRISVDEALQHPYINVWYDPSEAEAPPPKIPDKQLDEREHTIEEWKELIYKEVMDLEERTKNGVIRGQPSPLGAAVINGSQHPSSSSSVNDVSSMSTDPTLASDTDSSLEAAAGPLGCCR

The fraction bound of `Cc1cc(-c2cccc(-n3cc(COC(=O)[C@]4(C)C=C(C(=O)OC(C)(C)C)C(=O)CC4)nn3)c2)c(C)c2c1CNCC2` is reported as 0.803 (D-peptide binding, inhibitor, FP peptide displacement; 1.562 µM; lower is stronger displacement).
`CC(C)C[C@@H](C=O)NC(=O)[C@H](CC(C)C)NC(=O)[C@H](CC(C)C)NC(=O)OCc1ccccc1` — result for “relative protein level”: 1.28 (degrader, western blot, item: JNK over tubulin; HeLa; concentration not given; relative to: untreated control).
`Cc1nc(NC(=O)N2CCC[C@H]2C(N)=O)sc1-c1ccnc(C(C)(C)C(F)(F)F)c1` has a remaining binding of 55% (KINOMEscan; 10 µM).
`C1=C/COCc2cc(ccc2OCCN2CCCC2)Nc2nccc(n2)-c2cccc(c2)COC/1` has a binding of 12% (concentration not given, kinase construct JNK1; relative to: control).
`CNc1ncc2c(/C=C/C(=O)N3CCC(OC)CC3)nn(Cc3cccc(C(F)(F)F)c3)c2n1` gave a remaining activity of 91% (kinase activity, inhibitor; 1 µM; relative to: untreated control).
The remaining activity of `Cc1cc(NC(=O)c2cccc(NC(=O)/C=C/CN(C)C)c2)ccc1Nc1nccc(-c2cccnc2)n1` is reported as 1.03 (enzyme activity, inhibitor; 2.79e-05 µM, 0 h, unit not given, with: GSH 10 mM pre-incubation; relative to: vehicle).
`O=C(Nc1nnc(-c2ccncc2)s1)C(F)(F)I` gave a ligand efficiency of 0.39 (binding, isothermal titration calorimetry).
With `C#CCCOC(=O)[C@]1(C)C=C(C(=O)OC(C)(C)C)C(=O)CC1` the fraction bound was 0.125 (D-peptide binding, inhibitor, FP peptide displacement; 50 µM; lower is stronger displacement).
The association constant of `O=C(Nc1nnc(-c2ccncc2)s1)C(F)(F)Br` is reported as 71800 M⁻¹ (binding, isothermal titration calorimetry).
With `O=C1NC(=O)/C(=C/c2ccc(-c3ccc(F)cc3O)o2)S1` the remaining activity was 99% (enzyme activity; 10 µM).
`O=C(Nc1nnc(-c2ccncc2)s1)C(F)(F)Cl` gave a ligand efficiency of 0.37 (binding, isothermal titration calorimetry).
For `COc1cc(F)ccc1-c1ncnc(Nc2cccc(C[S@](C)(=N)=O)c2)n1`, the remaining activity was 90% (kinase activity; 10 µM, with: 10 µM ATP).

Repeated from above:
`O=C(Nc1nnc(-c2ccncc2)s1)C(F)(F)Cl` gave a ligand efficiency of 0.37 (binding, isothermal titration calorimetry).
